Assay results of several laboratories.
Each numbered part is a random draw from the data of one study; scales do not carry over between parts.

Series 1
Target: Sal-like protein 4, full length isoform B (SALL4, Homo sapiens, UniProt Q9UJQ4-2, residues 1-616)
Technique: universal PBM
Form: double-stranded DNA, one strand shown
Medium: in vitro
Tested at: not given
Setting: 8-mer, flanks averaged, mean of replicates
Direction: higher = stronger binding
Target sequence (chain): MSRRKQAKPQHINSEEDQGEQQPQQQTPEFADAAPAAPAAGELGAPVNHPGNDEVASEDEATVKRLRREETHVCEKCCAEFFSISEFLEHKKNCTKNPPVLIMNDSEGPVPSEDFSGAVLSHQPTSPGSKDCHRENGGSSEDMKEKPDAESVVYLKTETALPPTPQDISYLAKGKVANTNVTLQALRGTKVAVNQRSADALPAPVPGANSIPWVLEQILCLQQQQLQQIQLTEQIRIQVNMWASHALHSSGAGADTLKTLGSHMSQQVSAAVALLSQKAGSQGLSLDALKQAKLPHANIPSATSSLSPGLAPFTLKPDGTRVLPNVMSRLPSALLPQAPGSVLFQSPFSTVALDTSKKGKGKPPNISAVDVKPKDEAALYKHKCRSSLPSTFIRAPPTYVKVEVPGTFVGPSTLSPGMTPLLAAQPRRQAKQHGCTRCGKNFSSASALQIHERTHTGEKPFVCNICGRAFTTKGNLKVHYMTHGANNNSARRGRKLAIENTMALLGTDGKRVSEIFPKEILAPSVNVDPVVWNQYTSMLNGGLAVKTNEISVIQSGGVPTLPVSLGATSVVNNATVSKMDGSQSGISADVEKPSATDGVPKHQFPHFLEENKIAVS
| Oligonucleotide | E-score |
| --- | --- |
| GGTTTCTA | 0.00516 |
| ACAACTTA | 0.166 |
| CTGCGGCC | -0.436 |
| AAGCGACC | -0.131 |
| TGCCCACA | -0.353 |
| CTTTCTGC | -0.0997 |

Series 2
Target: Interferon regulatory factor 3, full length, phosphomimetic (IRF3, Homo sapiens, UniProt Q14653, residues 1-427, S386D/S396D/S398D/S402D/T404D/S405D)
Chain of UniProt Q14653 (whole entry, unmodified, looked up): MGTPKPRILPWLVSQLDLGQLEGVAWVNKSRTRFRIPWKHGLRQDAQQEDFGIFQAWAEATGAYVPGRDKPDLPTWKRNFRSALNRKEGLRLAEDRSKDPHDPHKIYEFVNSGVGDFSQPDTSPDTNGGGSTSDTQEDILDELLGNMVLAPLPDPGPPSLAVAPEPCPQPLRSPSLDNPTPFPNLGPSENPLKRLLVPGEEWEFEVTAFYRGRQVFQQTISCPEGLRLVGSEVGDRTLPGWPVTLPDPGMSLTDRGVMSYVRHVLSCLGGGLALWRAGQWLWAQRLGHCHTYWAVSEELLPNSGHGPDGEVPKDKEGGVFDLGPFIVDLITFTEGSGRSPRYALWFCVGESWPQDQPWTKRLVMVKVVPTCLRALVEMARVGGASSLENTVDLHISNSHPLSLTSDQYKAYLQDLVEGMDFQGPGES
Technique: protein-binding microarray
Form: double-stranded DNA, one strand shown
Medium: in vitro
Tested at: 2540 nM top
Setting: 60-bp whole probe
With: salmon DNA 0.4 mg/ml
Reference: random background probes
Direction: higher = stronger binding
Shared flanks, not repeated: GCCTAGCAC … GTCTTGATTCGCTTGACGCTGCTG
| Oligonucleotide | fitted relative affinity [z-score] |
| --- | --- |
| TTAGGTCTCCTTTTCGTTTAGTGCTAG | 5.49 |
| TTAGGTTTCGGGTCCGGTTAGTGCTAG | 4.6 |
| GACGAACTGAGTATCGAGAGGTGCTAG | -0.15 |
| TCATTTTTTTCCCTGAAACTGTGCTAG | 1.18 |
| TTACGTCTCCTTCTCCTTTAGTGCTAG | 3.45 |
| TCTACTGTCTGTTTCCTCTTGTGCTAG | 2.11 |
| TCAGATCACCGATTTCCTACTGTGCTA | 1.41 |

Series 3
Target: RNA binding protein fox-1 homolog 2, RRM domain, GST-SBP tag (RBFOX2, Homo sapiens, UniProt O43251-10, residues 100-194)
Technique: RNA Bind-n-Seq
Form: RNA
Medium: in vitro
Tested at: 365 nM
Setting: natural RNA segment, single round, ends assumed
Reference: no-protein control
Direction: higher = stronger binding
Construct (chain): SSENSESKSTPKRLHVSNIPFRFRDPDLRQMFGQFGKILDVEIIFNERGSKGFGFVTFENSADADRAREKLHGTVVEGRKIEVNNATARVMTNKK
| Oligonucleotide | RBNS enrichment (R) |
| --- | --- |
| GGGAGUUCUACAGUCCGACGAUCGAUUCCACUCAGAACCUCUUUCUAAAGUUUUUGCCUGAUGUGUCUUCACUGGAUUUUGGGGUUCCCAGCACCCCAUGUAGAUUUGGGGGUUUCUUUUUGUCUCCCCCACUUGGAAUUCUCGGGUGCCAA | 0.388 |
| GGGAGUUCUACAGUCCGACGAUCCCAUUGCUCCUUCUGAAGCAUUUCUCAUGUCUAGGUUUUCCUUGGAAGCAUAUUUAGCCAUCUAUGUGGCUUUAUGGCCCACAGACCUUGCCUUUUAGUCCUAUACAAAUUGGAAUUCUCGGGUGCCAA | 0.313 |
| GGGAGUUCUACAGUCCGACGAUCGAGAAGCUGAGUCUUCUGCAUCAGAUUAUUGCAACAUUUAACCUGAAUUUAAAAGCACACGAAACAAGGUGUCAAUGGGAAUCUCGCGGCCAACGCCCCCAGAUGUAGGGUGGAAUUCUCGGGUGCCAA | 2.09 |
| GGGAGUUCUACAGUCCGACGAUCGGUGUAUGGUGGGGGCAAUAAAUGAGGUUUUUUGCAUUCCAAGGAAAUGGCAUAUGGAUUAACUAUAAGAAAUGAAAUAAGUAAUUUAUUGUAAGACAACAUCAAGCCAUUGGAAUUCUCGGGUGCCAA | 0.772 |
| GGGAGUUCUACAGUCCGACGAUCUUUCAUCUCAACUAUGUUAUACCUGGACAUUUUAGAUGUUUAUCAAAGGUCUUUUAUGGGGAAGAAAGUAAAUGUAUGAAAUAAUAAAUGUGUGACAUUUAUAGGGAAUGUGGAAUUCUCGGGUGCCAA | 0.509 |
| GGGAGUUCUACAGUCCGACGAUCUCUGACAAAGUGUGCCGGUCUAACAAUAAAAUAGGGUUUUGUAAUCUUCUGGUUGGUAAAAGAUAUGUUCCGGAGAAUAUAGGAACAUGCCCGGAGAGACCUAACCUGUAUGGAAUUCUCGGGUGCCAA | 0.438 |
| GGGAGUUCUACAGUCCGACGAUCCCUAGUUGCAUGUCCAAGGGGGUAGAUUUUCAUCACCCUACUAAAUGUGGUAUGUCACUGCUGAAGCCUUUUCCUGUUUUAGUAAUAUCUUAGGCACUAUUGUCUUUUGUUGGAAUUCUCGGGUGCCAA | 2.69 |
| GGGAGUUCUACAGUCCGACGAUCGCAAUAGCAUUUAGGGAUGCACGCACAGUGGUAAUUUAUUACUCAGUUCCGGUUAUGUUUUUCUCCAAAACCUGAACAUUUUUACUCUGUUGGCUCAUUCUAUUUUGACUUGGAAUUCUCGGGUGCCAA | 0.972 |
| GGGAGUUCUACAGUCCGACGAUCACAGAUAACCUGUUGAGCUUGUGCCUUGAUUGUUUUAACAACUAGUGCAAAUCAACCUGAUGAUUUUAAUUGGCAGGGGAUAAUGGUAGCUUUCAAAUCAUUGGAAGGGGUGGAAUUCUCGGGUGCCAA | 0.454 |
| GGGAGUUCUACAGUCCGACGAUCCAAGUCAUUUUUGUAUUUUUCAUCUUUAAGAAUGCUUAAAAAAGCUAAUCCCUAAAAUAGUUAGAUCUUUGUAAAUGCAUAUUAAAUAAUAAAGUAUGACCCACAUUACUUGGAAUUCUCGGGUGCCAA | 0.359 |

Further values, each from its own experiment
| Molecule | target | assay | system | conditions | how to read | endpoint | value |
| --- | --- | --- | --- | --- | --- | --- | --- |
| PhoQ, residues 284 288 289 292 302 303 NLMGRA | PhoP, residues 12 14 15 18 19 QYCSL (Escherichia coli, UniProt P23836) | Sort-seq, refers to: YFP reporter | E. coli | PhoQ-PhoP variant library, with: 10 µM Mg2+ | reference: high Mg2+ state, higher = stronger signaling | fold induction | 12.1 |
